Results pooled from the literature.
Compare with care: the assays were run in different laboratories. Numbers after ± are the reported error.
DCN1-like protein 1: DCN1-like protein 1 (Homo sapiens, UniProt Q96GG9)
Chain of UniProt Q96GG9 (whole entry, looked up): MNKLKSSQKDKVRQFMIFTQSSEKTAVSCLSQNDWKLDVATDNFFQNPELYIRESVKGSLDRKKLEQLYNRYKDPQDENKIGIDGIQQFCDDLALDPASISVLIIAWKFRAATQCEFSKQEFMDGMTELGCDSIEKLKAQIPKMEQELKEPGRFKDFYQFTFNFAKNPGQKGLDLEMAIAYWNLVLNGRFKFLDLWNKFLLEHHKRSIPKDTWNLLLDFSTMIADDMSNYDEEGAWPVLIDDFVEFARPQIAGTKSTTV
Chain of UniProt P10635 (whole entry, unmodified, looked up): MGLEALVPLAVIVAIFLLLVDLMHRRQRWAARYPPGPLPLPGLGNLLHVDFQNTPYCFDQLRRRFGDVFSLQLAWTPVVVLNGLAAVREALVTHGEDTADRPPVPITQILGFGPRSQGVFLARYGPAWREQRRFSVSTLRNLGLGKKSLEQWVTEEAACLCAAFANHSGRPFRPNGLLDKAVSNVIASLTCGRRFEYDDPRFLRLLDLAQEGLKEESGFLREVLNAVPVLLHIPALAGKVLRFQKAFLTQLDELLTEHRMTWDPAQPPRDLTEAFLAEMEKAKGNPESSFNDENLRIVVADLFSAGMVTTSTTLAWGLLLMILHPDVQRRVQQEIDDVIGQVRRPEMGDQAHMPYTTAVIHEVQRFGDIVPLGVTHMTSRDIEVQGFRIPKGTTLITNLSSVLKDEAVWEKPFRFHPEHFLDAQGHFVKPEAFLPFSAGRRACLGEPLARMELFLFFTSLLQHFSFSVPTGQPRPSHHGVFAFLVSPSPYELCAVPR
Chain of UniProt Q8VJU4 (whole entry, looked up): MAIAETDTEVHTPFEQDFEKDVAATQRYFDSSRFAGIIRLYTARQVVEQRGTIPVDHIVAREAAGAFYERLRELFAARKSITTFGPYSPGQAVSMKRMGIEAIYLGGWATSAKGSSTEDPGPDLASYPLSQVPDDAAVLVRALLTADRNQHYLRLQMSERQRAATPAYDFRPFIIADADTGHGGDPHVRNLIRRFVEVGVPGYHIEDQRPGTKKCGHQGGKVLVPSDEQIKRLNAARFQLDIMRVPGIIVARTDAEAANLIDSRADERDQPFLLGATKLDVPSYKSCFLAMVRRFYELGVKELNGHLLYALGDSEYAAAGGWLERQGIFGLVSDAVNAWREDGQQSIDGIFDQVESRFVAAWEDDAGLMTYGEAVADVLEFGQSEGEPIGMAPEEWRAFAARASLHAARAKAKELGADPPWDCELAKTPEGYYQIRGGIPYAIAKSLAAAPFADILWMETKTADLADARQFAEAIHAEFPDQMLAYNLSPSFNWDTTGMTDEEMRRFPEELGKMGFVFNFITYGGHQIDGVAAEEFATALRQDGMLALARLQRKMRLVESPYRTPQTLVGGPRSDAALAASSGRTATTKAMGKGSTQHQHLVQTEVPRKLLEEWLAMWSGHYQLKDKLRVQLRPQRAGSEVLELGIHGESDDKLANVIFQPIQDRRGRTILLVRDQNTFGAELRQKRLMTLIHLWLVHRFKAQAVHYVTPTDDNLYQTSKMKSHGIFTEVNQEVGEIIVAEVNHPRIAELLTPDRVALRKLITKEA
Chain of UniProt P34968 (whole entry, looked up): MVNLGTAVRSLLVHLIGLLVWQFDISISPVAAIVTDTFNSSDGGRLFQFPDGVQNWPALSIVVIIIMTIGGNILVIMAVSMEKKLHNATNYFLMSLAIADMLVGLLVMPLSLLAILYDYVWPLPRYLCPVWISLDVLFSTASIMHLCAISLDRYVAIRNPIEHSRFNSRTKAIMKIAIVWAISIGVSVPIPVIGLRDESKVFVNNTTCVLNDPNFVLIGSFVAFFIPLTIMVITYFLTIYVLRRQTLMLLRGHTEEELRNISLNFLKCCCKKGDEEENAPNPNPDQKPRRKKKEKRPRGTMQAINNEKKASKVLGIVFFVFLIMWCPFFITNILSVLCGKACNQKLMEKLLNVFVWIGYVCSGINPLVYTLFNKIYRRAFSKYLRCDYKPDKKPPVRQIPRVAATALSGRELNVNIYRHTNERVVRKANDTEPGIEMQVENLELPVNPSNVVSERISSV
Chain of UniProt P08172 (whole entry, looked up): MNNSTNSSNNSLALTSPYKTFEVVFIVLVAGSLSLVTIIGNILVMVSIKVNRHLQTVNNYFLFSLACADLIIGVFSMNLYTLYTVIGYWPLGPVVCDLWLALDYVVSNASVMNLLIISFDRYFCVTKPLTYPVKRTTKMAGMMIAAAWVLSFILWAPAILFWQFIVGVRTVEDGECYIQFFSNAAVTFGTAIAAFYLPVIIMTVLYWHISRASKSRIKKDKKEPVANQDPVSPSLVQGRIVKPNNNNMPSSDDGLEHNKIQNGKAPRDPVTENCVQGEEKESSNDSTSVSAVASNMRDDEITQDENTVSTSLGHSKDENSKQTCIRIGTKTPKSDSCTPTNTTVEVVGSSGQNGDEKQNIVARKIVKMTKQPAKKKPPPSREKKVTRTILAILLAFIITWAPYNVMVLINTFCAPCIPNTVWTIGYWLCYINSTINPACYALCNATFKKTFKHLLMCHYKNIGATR
Chain of UniProt Q8NET8 (whole entry, unmodified, looked up): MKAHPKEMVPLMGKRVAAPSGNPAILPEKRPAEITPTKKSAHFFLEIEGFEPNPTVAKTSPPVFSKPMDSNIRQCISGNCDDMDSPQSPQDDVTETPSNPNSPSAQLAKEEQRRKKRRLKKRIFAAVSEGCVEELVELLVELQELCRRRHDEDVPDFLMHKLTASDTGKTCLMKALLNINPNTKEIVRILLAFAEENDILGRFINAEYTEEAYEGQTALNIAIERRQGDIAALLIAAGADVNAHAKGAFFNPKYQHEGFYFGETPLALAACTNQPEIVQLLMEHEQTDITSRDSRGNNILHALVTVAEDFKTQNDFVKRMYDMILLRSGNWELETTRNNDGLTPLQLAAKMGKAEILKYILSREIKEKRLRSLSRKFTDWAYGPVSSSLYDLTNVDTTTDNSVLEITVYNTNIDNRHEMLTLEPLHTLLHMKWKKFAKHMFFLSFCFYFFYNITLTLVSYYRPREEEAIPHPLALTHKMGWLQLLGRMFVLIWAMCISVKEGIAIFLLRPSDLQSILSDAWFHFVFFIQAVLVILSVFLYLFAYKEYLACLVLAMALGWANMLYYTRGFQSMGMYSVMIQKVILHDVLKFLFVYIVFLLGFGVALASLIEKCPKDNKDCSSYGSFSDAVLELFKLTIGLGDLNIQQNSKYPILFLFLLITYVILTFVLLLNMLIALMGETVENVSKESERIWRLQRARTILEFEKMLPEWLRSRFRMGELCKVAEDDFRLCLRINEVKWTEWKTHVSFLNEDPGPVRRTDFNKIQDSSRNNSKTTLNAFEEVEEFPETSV
Chain of UniProt Q9UNU6 (whole entry, looked up): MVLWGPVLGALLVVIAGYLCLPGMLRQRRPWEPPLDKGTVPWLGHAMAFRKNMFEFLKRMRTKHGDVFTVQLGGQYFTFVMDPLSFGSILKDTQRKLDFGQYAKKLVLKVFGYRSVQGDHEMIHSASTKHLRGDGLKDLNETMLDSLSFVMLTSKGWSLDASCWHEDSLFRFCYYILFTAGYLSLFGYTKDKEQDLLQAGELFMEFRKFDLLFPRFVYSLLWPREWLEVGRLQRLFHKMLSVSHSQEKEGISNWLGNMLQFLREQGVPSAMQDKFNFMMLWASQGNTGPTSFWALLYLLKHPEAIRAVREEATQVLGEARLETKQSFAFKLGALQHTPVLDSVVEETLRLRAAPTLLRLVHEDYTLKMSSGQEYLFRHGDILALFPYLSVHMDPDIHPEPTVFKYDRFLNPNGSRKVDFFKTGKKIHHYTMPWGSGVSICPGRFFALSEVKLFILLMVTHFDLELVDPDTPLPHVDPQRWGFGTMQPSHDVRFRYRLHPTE

For `CCCc1cc(O)c2c(c1)OC(C)(C)[C@@H]1CCC(C)=C[C@@H]21`, the EC50 was 9.35 ± 0.91 µM (TRPV3 (Homo sapiens, UniProt Q8NET8, A560M); calcium uptake, agonist; HEK293S; mutant A560M, site 1).
`Cc1cc(C)n2c(Nc3ccc4c(c3)OCCO4)c(-c3cccc(Br)c3)nc2n1` gave an EC50 of 0.45 ± 0.01 µM (Hemagglutinin (HA, Influenza A virus, UniProt Q91MA7); viral replication; A/Hong Kong/1/1968 (H3N2)).
For `Cc1nc([C@H]2c3c(C)nn(-c4ccccc4)c3NC(=O)[C@H]2NC(=O)c2cccc(C(F)(F)F)c2)cs1`, the IC50 was over 15 µM (DCN1-like protein 1).
`CC(C)(COP(=O)(O)OP(=O)(O)OC[C@H]1O[C@@H](n2cnc3c(N)ncnc32)[C@H](O)[C@@H]1OP(=O)(O)O)[C@@H](O)C(=O)NCCC(=O)NCCS` has a Kd of 209 ± 9 µM (icl2 (Mycobacterium tuberculosis, UniProt Q8VJU4)).
For `Cc1nn(-c2ccccc2)c2c1[C@H](c1ccc(F)cc1)[C@H](NC(=O)c1cccc(C(F)(F)F)c1)C(=O)N2CCO[Si](C)(C)C(C)(C)C`, the IC50 was over 15 µM (DCN1-like protein 1).
The EC50 of `COc1cc(CCN)c(OC)cc1C#N` is reported as 0.204 µM (Htr2c (Mus musculus, UniProt P34968); agonist; cell-based).
`CNC(C)Cc1ccc2c(c1)OCO2` (stereo not drawn) has an IC50 of 29.8 µM (Cytochrome P450 2D6 (CYP2D6, Homo sapiens, UniProt P10635); enzyme activity, time-dependent inhibitor; preincubation without NADPH, with: dextromethorphan O-demethylation).
With `Clc1cc(Cl)cc(N2CCNCC2)c1` the EC50 was over 20 µM (CHRM2 (Homo sapiens, UniProt P08172); ERK1/2 phosphorylation, agonist; CHO cells).
For `CCOC(=O)c1cc([C@H]2c3c(C)nn(-c4ccccc4)c3NC(=O)[C@H]2NC(=O)c2cccc(C(F)(F)F)c2)ccc1F`, the IC50 was over 15 µM (DCN1-like protein 1).
For `Cc1cccc([C@H](C)c2cnc[nH]2)c1C`, the Kd was 396 µM (7-alpha-hydroxycholest-4-en-3-one 12-alpha-hydroxylase (Homo sapiens, UniProt Q9UNU6); binding; 20 min, pH 7.4).
The IC50 of `CC(NC(C)(C)C)C(=O)c1cccc(Cl)c1` (stereo not drawn) is reported as 40.6 µM (Cytochrome P450 2D6 (CYP2D6, Homo sapiens, UniProt P10635, R296C/S486T/T107I); pH 7.4).
For `Cc1nn(-c2ccccc2)c2c1[C@H](c1ccc(O)nc1)[C@H](NC(=O)c1cccc(C(F)(F)F)c1)C(=O)N2`, the IC50 was over 15 µM (DCN1-like protein 1).
